Experimental data collected from several papers.
Lines come from different studies, so protocols differ. Values joined by “and” are separate records of one study, mostly repeats; a detail may differ. Ends that are not written are not given here.
B1: disulfide; chain ATCYCRTGRCATRESLSGVCEISGRLYRLCCR (disulfide (positions not given here))

Substance	tested on	assay	system	setting	how to read	measurement	value
HNP1 T18A	Acinetobacter baumannii	crystal violet staining	19606	concentration not given		biofilm formation	315% and 360% and 262% and 374% and 474% and 393%
Polymyxin B	Acinetobacter baumannii	broth microdilution, MH medium	carbapenem-resistant CCARM 12006	16 h, 37 °C		MIC	8 µM
B1	Acinetobacter baumannii	crystal violet staining	19606	concentration not given		biofilm formation	114% and 128% and 168% and 118% and 205%
polymyxin B	Acinetobacter baumannii		17978, colistin-sensitive, Mueller-Hinton broth			MIC	0.5 µg/mL
colistin sulfate	Acinetobacter baumannii	broth microdilution	22933			MIC	0.4 µM
AFTCHCRR / SCYSTEYSYGTCTVMGINHRFCCL (disulfide)	Acinetobacter baumannii	crystal violet staining	peptide, 19606	concentration not given		biofilm formation	170% and 203% and 125% and 197% and 103%
tunicamycin	Acinetobacter baumannii	broth microdilution, EUCAST	ATCC 17978	18 to 24 h, 37 °C		MIC	> 64 µg/mL
Polymyxin B	Acinetobacter baumannii		17978	sub-MIC		time to resistance	3 to 4 days
colistin	Acinetobacter baumannii		1188767, multidrug-resistant			MIC	0.25 µg/mL
insulin human		refers to: EPHA7 mRNA	EcoHIV-infected mouse, brain	i.p., dose not given	baseline: PBS	fold change	1.08
colistin	Acinetobacter baumannii		carbapenem-resistant clinical isolate			MIC	0.5 µg/mL
Polymyxin B	Acinetobacter baumannii	broth microdilution	A1, clinical isolate, Mueller-Hinton broth	20 h, 37 °C		MIC	0.5 µg/mL

A few entries again:
Substance	tested on	assay	system	setting	how to read	measurement	value
Polymyxin B	Acinetobacter baumannii	broth microdilution	A1, clinical isolate, Mueller-Hinton broth	20 h, 37 °C		MIC	0.5 µg/mL
